Experimental data pooled from the literature.
Protocols differ between the studies behind these lines. Numbers after ± are the reported error.
UniProt Q8IU85, sequence (whole entry, looked up): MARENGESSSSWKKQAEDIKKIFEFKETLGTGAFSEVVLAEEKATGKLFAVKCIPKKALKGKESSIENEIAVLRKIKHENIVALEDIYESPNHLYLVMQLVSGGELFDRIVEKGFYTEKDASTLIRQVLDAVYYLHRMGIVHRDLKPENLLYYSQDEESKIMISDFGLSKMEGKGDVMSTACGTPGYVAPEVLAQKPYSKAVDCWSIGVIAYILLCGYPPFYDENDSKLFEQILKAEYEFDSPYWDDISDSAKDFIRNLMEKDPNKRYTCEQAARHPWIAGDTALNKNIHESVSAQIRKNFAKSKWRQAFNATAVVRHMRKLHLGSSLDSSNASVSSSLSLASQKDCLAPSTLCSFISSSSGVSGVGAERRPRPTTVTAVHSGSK

| SMILES | target or system | test | system | conditions | how to read | quantity | result |
| --- | --- | --- | --- | --- | --- | --- | --- |
| CC(=O)NC[C@H]1CN(c2ccc(N3CCOCC3)c(F)c2)C(=O)O1 | Staphylococcus aureus | broth microdilution | MRSA NRS384 USA300 | – | – | MIC | 2 µM |
| N=C(N)c1ccc(OCCCCCOc2ccc(C(=N)N)cc2)cc1 | Escherichia coli | – | 552100 | compound alone | – | MIC | 200 µg/mL |
| CC(=O)NC[C@H]1CN(c2ccc(N3CCOCC3)c(F)c2)C(=O)O1 | Bacteroides fragilis | – | HM-714 | – | – | MIC | 5.93 µM |
| Cc1c(CN(C)C(=O)/C=C/c2cnc3c(c2)CC(CCN)C(=O)N3)oc2ccccc12.Cl (stereo not drawn) | Enterobacter cloacae | broth microdilution | BAA-2468 | – | – | MIC | 8 µg/mL |
| CC1(C)S[C@@H]2[C@H](NC(=O)[C@H](N)c3ccccc3)C(=O)N2[C@H]1C(=O)O | Bordetella bronchiseptica | broth microdilution | ATCC 10580 | – | – | MIC | 86.2 µM |
| N=C(N)c1ccc(OCc2ccccc2COc2ccc(C(=N)N)cc2)cc1 | Escherichia coli | – | mcr-2 polymyxin-resistant | 20 h, compound alone | – | MIC | > 200 µg/mL |
| Cc1ccc(CCC(=O)Nc2nnc(S(N)(=O)=O)s2)cc1 | Bacteroides fragilis | – | HM-714 | – | – | MIC | > 784 µM |
| CN(C)[C@@H]1C(O)=C(C(N)=O)C(=O)[C@@]2(O)C(O)=C3C(=O)c4c(O)cccc4[C@@](C)(O)[C@H]3C[C@@H]12 | Acinetobacter calcoaceticus | broth microdilution | 150 | – | – | MIC | 2 µg/mL |
| CC1(C)SC2C(NC(=O)C(NC(=O)C3=C(O)CN(c4ccccc4)C3=O)c3ccccc3)C(=O)N2C1C(=O)O (stereo not drawn) | Escherichia coli | broth microdilution | ATCC 25922 wild type | added: clavulanic acid 6 µg/mL | – | MIC | 12.5 µg/mL |
| C[C@@H](O)[C@H]1C(=O)N2C(C(=O)O)=C(SCCN=CN)C[C@H]12 | Enterobacter cloacae | – | BNCC 185928 | – | – | MIC | 2 µg/mL |
| C[C@H]1COc2c(N3CCN(C)CC3)c(F)cc3c(=O)c(C(=O)O)cn1c23 | Enterobacter cloacae | agar dilution | ATCC 43560 susceptible | – | – | MIC | ≤ 0.03 µg/mL |
| CC(C)C[C@H](NC(=O)C[C@H](O)[C@H](CC(C)C)NC(=O)[C@H](Cc1c[nH]cn1)NC(=O)CNC(=O)[C@@H](NC(=O)[C@H](C)NC(=O)[C@H](Cc1c[nH]c2ccccc12)NC(=O)[C@H](CCC(N)=O)NC(=O)[C@@H](Cc1ccccc1)NC(=O)COCCOCCNC(=O)CCC(C(=O)O)N1CCN(CC(=O)O)CCN(CC(=O)O)CCN(CC(=O)O)CC1)C(C)C)C(N)=O (stereo partly drawn) [lutetium-177 labelled] | – | – | female BALB/c nu/nu mice, kidneys | intravenous, 50 pmol, 1 h | – | tissue uptake | 3.8 ± 0.8 %ID/g |
| CN[C@H](CC(C)C)C(=O)N[C@H]1C(=O)N[C@@H](CC(N)=O)C(=O)N[C@H]2C(=O)N[C@H]3C(=O)N[C@H](C(=O)N[C@H](C(=O)O)c4cc(O)cc(O)c4-c4cc3ccc4O)[C@H](O)c3ccc(c(Cl)c3)Oc3cc2cc(c3O[C@@H]2O[C@H](CO)[C@@H](O)[C@H](O)[C@H]2O[C@H]2C[C@](C)(N)[C@H](O)[C@H](C)O2)Oc2ccc(cc2Cl)[C@H]1O | Bordetella bronchiseptica | broth microdilution | ATCC 10580 | – | – | MIC | 2.69 µM |
| CCCCCCCCCC(=O)N[C@@H](Cc1c[nH]c2ccccc12)C(=O)N[C@H](CC(N)=O)C(=O)N[C@@H](CC(=O)O)C(=O)N[C@@H]1C(=O)NCC(=O)N[C@@H](CCCN)C(=O)N[C@@H](CC(=O)O)C(=O)N[C@H](C)C(=O)N[C@@H](CC(=O)O)C(=O)NCC(=O)N[C@H](CO)C(=O)N[C@@H]([C@H](C)CC(=O)O)C(=O)N[C@@H](CC(=O)c2ccccc2N)C(=O)O[C@@H]1C | Staphylococcus aureus | – | SH1000 | added: N-acetylsphingosine, molar ratio 0.5 | – | MIC | 1 µg/mL |
| Cn1cc(-c2ccc(-c3cncc(Cl)c3N3CCC4(CCNC4=O)CC3)cc2)cn1 | COLO 205 | gene expression, microarray, measured: ARHGEF2 mRNA | – | concentration not given, 2 h | reference: untreated cells | log2 fold change | 2.27 |
| CC[C@@H]1[C@H](F)C(=O)N[C@@H]1COc1nccc2cc(C(N)=O)c(OC)cc12 | CAMK1D (Homo sapiens, UniProt Q8IU85) | ATP probe binding, KiNativ profiling, measured: Lys1 probe site | THP-1 cell lysate | – | – | IC50 | > 5 µM |
| N=C(N)c1ccc(OCc2ccc(Br)cc2COc2ccc(C(=N)N)cc2)cc1 | Escherichia coli | – | 552100 | in combination, checkerboard, added: rifampicin | – | MIC | 6.25 µg/mL |
| CC[C@H](C)[C@H](NC(=O)[C@H](CCCCN)NC(=O)[C@H](CCC(=O)O)NC(=O)[C@H](CCCCN)NC(=O)[C@H](CO)NC(=O)[C@H](CCCCN)NC(=O)[C@H](CCCNC(=N)N)NC(=O)[C@H](Cc1ccccc1)NC(=O)[C@H](Cc1ccccc1)NC(=O)[C@H](CC(=O)O)NC(=O)CNC(=O)[C@H](CC(C)C)NC(=O)[C@@H](N)CC(C)C)C(=O)NCC(=O)N[C@@H](CCCCN)C(=O)N[C@@H](CCC(=O)O)C(=O)N[C@@H](Cc1ccccc1)C(=O)N[C@@H](CCCCN)C(=O)N[C@@H](CCCNC(=N)N)C(=O)N[C@H](C(=O)N[C@H](C(=O)N[C@@H](CCC(N)=O)C(=O)N[C@@H](CCCNC(=N)N)C(=O)N[C@H](C(=O)N[C@@H](CCCCN)C(=O)N[C@@H](CC(=O)O)C(=O)N[C@@H](Cc1ccccc1)C(=O)N[C@@H](CC(C)C)C(=O)N[C@@H](CCCNC(=N)N)C(=O)N[C@@H](CC(N)=O)C(=O)N[C@@H](CC(C)C)C(=O)N[C@H](C(=O)N1CCC[C@H]1C(=O)N[C@@H](CCCNC(=N)N)C(=O)N[C@H](C(=O)N[C@@H](CCC(=O)O)C(=O)N[C@@H](CO)C(=O)O)[C@@H](C)O)C(C)C)[C@@H](C)CC)C(C)C)[C@@H](C)CC | Bordetella bronchiseptica | broth microdilution | ATCC 10580 | 16 h, 37 °C, cation-adjusted Mueller-Hinton broth | – | MIC | 128 µg/mL |
| CC1(C)SC2C(NC(=O)C(NC(=O)C3=C(O)C(Cc4ccc([N+](=O)[O-])cc4)NC3=O)c3ccccc3)C(=O)N2C1C(=O)O (stereo not drawn) | Escherichia coli | broth microdilution | BW25113 wild type | 18 h | – | MIC | 50 µg/mL |
| CN[C@H](CC(C)C)C(=O)N[C@H]1C(=O)N[C@@H](CC(N)=O)C(=O)N[C@H]2C(=O)N[C@H]3C(=O)N[C@H](C(=O)N[C@H](C(=O)O)c4cc(O)cc(O)c4-c4cc3ccc4O)[C@H](O)c3ccc(c(Cl)c3)Oc3cc2cc(c3O[C@@H]2O[C@H](CO)[C@@H](O)[C@H](O)[C@H]2O[C@H]2C[C@](C)(N)[C@H](O)[C@H](C)O2)Oc2ccc(cc2Cl)[C@H]1O | Listeria ivanovii | – | BAA-139 | – | – | MIC | 0.5 µM |
| N=C(N)c1ccc(OCc2cc(Br)cc(COc3ccc(C(=N)N)cc3)c2)cc1 | Escherichia coli | – | BW25113 | compound alone, added: erythromycin checkerboard | – | MIC | > 100 µg/mL |
| CC[C@H]1OC(=O)[C@H](C)[C@@H](O[C@H]2C[C@@](C)(OC)[C@@H](O)[C@H](C)O2)[C@H](C)[C@@H](O[C@@H]2O[C@H](C)C[C@H](N(C)C)[C@H]2O)[C@](C)(O)C[C@@H](C)CN(C)[C@H](C)[C@@H](O)[C@]1(C)O | Enterobacter cloacae | – | BNCC 185928 | – | – | MIC | 32 µg/mL |
| CN[C@H](CC(C)C)C(=O)N[C@H]1C(=O)N[C@@H](CC(N)=O)C(=O)N[C@H]2C(=O)N[C@H]3C(=O)N[C@H](C(=O)N[C@H](C(=O)O)c4cc(O)cc(O)c4-c4cc3ccc4O)[C@H](O)c3ccc(c(Cl)c3)Oc3cc2cc(c3O[C@@H]2O[C@H](CO)[C@@H](O)[C@H](O)[C@H]2O[C@H]2C[C@](C)(N)[C@H](O)[C@H](C)O2)Oc2ccc(cc2Cl)[C@H]1O | Streptococcus pyogenes | – | ATCC 19615 | 1 strain | – | MIC | 0.25 µg/mL |
| C[C@@H](O)[C@H]1C(=O)N2C(C(=O)O)=C(S[C@@H]3CN[C@H](C(=O)N(C)C)C3)[C@H](C)[C@H]12 | Enterobacter cloacae | – | BNCC 185928 | – | – | MIC | 0.125 µg/mL |
| C[C@@H](O)[C@H]1C(=O)N2C(C(=O)O)=C(S[C@@H]3CN[C@H](C(=O)N(C)C)C3)[C@H](C)[C@H]12 | Morganella morganii | broth microdilution | clinical isolate RKI 599/16 | – | – | MIC | > 64 µg/mL |
| Cc1cc(-c2cn[nH]c2-c2cccc(OCc3cccc(C#N)c3)c2)cc(C)n1 | Enterobacter cloacae | broth microdilution | ATCC 29893 | – | – | MIC | 4 µg/mL |
| CN(C)[C@@H]1C(O)=C(C(N)=O)C(=O)[C@@]2(O)C(O)=C3C(=O)c4c(O)cccc4[C@@](C)(O)[C@H]3C[C@@H]12 | Enterobacter cloacae | – | BNCC 185928 | – | – | MIC | 2 µg/mL |

Excerpt of the above:
| SMILES | target or system | test | system | conditions | how to read | quantity | result |
| --- | --- | --- | --- | --- | --- | --- | --- |
| Cc1c(CN(C)C(=O)/C=C/c2cnc3c(c2)CC(CCN)C(=O)N3)oc2ccccc12.Cl (stereo not drawn) | Enterobacter cloacae | broth microdilution | BAA-2468 | – | – | MIC | 8 µg/mL |
| CC1(C)S[C@@H]2[C@H](NC(=O)[C@H](N)c3ccccc3)C(=O)N2[C@H]1C(=O)O | Bordetella bronchiseptica | broth microdilution | ATCC 10580 | – | – | MIC | 86.2 µM |
| N=C(N)c1ccc(OCc2ccccc2COc2ccc(C(=N)N)cc2)cc1 | Escherichia coli | – | mcr-2 polymyxin-resistant | 20 h, compound alone | – | MIC | > 200 µg/mL |
